Measured values pooled from the literature.
Parts stem from different laboratories: compare values within a part only. “And” joins repeats or separate records; there may be more than shown.

Block 1 — action: inhibitor; concentration: 20 µM; measurement: inhibition
Target: Replicase polyprotein 1ab, nsp13 helicase (rep, Severe acute respiratory syndrome coronavirus 2, UniProt P0DTD1)
SMILES = CC1=NN(c2ccc(C(=O)O)cc2)C(=O)/C1=C\c1ccc(-c2cc(C)c(C)cc2[N+](=O)[O-])o1; result = 56%
SMILES = C#C[C@]1(O)CC[C@H]2[C@@H]3CCC4=CC(=O)CC[C@@H]4[C@H]3CC[C@@]21C; result = -1.47%
SMILES = NS(=O)(=O)c1cc2c(cc1Cl)N=CNS2(=O)=O; result = 10.1%
SMILES = CCCCCS(=O)(=O)CCCCCCCCCCn1c(-c2ccc(O)cc2)c(C)c2cc(O)ccc21; result = 3.81%
SMILES = CN1C(=O)/C(=C2/C(=O)Nc3ccccc32)c2ccccc21; result = 27.9%
SMILES = COc1ccc(CC(=O)NC(N=C(NC#N)Nc2cccc3ncccc23)C(C)(C)C)cc1OC (centres unmarked); result = 12.9%
SMILES = C1CCC2(CC1)CCNCC2; result = 5.41%
SMILES = O=C(CNC(=O)c1cccc(C(F)(F)F)c1)N[C@@H]1CCN(Cc2ccc(Cl)cc2)C1; result = 4.73%
SMILES = CC[N+](C)(CC)CC(=O)Nc1c(C)cccc1C; result = 5.91%
SMILES = NC(=O)c1cn(Cc2c(F)cccc2F)nn1; result = 6.35%
SMILES = O=c1[nH]cc(F)c(=O)[nH]1; result = 3.47%
SMILES = C[C@@H]1CN([C@H]2CC[C@](C#N)(c3ccc(F)cc3)CC2)CC[C@]1(C(=O)O)c1ccccc1; result = 2.06%
SMILES = CN1C(=O)N(C)C2C1N(C)C(=O)N2C (centres unmarked); result = 2.55%
SMILES = C[C@@H]1CN(c2c(F)c(F)c3c(=O)c(C(=O)O)cn(C4CC4)c3c2F)C[C@H](C)N1; result = -1.43%
SMILES = C[C@@H](c1ccc2nccn2c1)n1nnc2ncc(-c3cnn(C)c3)nc21; result = 8.07%
SMILES = O=C1c2cccc3c2[C@H](CCC3)CN1[C@@H]1CN2CCC1CC2; result = 7.95%
SMILES = O=C(Oc1ccc(Br)cc1)N1CCN2CCC1CC2; result = 4.07%
SMILES = C=C[C@@](C)(/C=C/c1ccc(O)cc1)CCC=C(C)C; result = 2.7%
SMILES = CC(C)Oc1ccc2c(=O)c3cc(C(=O)O)ccc3oc2c1; result = 6.62%
SMILES = CCN1CCC(n2cc(CNc3cc(Cl)c4ncc(C#N)c(Nc5ccc(F)c(Cl)c5)c4c3)nn2)CC1; result = 8.91%
SMILES = CC(C)NCCCn1c(Sc2cc3c(cc2I)OCO3)nc2c(N)ncnc21; result = 4.84%
SMILES = CNc1ccc([N+](=O)[O-])cc1-n1cnc(-c2ccc(C(F)(F)F)cc2)c1; result = 4.82%
SMILES = N#Cc1c[nH]c2c(C(=O)N3CCN(CCc4ccc(F)cc4)CC3)cccc12; result = 6.2%
SMILES = CCN1CCN(C(=O)Cc2ccc(Nc3ncc(F)c(Nc4ccc(C(=O)Nc5ccccc5Cl)cc4)n3)cc2)CC1; result = 2.46%
SMILES = Cc1cc(C(C)(C)CC(C)(C)C)ccc1OCCOCC[N+](C)(C)Cc1ccccc1; result = 0.6%

Block 2 — technique: RNA Bind-n-Seq; form: RNA; matrix: in vitro; concentration: 200 nM; notes: whole 134-nt RNA, ends assumed; added: 150 mM LiCl; relative to: input library; direction: higher = stronger binding; measurement: log2 enrichment; library: 7-deaza-guanosine replaces G
Target: Ras GTPase-activating protein-binding protein 1, full length (G3BP1, Homo sapiens, UniProt Q13283)
UniProt Q13283, sequence (whole entry, looked up): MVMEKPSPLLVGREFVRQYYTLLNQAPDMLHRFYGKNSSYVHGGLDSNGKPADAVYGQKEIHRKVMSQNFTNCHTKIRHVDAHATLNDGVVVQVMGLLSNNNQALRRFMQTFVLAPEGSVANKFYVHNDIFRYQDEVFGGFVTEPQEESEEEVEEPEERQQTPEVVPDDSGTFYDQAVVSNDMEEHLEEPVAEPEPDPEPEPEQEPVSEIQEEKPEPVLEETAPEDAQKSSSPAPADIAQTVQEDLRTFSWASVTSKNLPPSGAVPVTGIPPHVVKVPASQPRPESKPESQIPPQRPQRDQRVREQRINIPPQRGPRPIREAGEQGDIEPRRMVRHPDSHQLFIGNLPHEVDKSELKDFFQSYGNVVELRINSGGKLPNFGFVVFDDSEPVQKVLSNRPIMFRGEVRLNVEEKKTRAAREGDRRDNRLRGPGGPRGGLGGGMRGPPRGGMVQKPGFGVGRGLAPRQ
Shared flanks, not repeated: GGGAGUUCUACAGUCCGACGAUC … UGGAAUUCUCGGGUGUCAAGG
Sequence = AGUCCUGUGCUACACAUCGUAUGUACCGAAUCGGAAAGGAAAAAAAGGAAAAAAAGGAAAGUAUUAUGUUACGCCGUUCGGAUCUGCACU; result = -0.964
Sequence = UGGCCCUGGUGGCAUGCGGGGAGGAAGAGGUGGCCUCAUGGAUCGUGGUGGUCCCGGUGGAAUGUUCAGAGGUGGCCGUGGUGGAGACAC; result = 0.662
Sequence = CUCAAGUCCUGUGCUACACAUCGUAUGUACCGAAUCGGUGGUUUUUGGUUUGGAAAGUAUUAUGUUACGCCGUUCGGAUCUGCACUUCCA; result = 0.31
Sequence = UCAAGUCCUGUGCUACACAUCGUAUGUACCGAAUCGGAAAGGAAAAAAAGGAGGAAAGUAUUAUGUUACGCCGUUCGGAUCUGCACUUCC; result = 0.123
Sequence = AAGUCCUGUGCUACACAUCGUAUGUACCGAAUCGGGUUUUUUUGGGAGGGUUUGGGAAAGUAUUAUGUUACGCCGUUCGGAUCUGCACUU; result = -0.545
Sequence = UGGCCCUGGUGGCAUGCGGGGAGGAAGAGGUGGCCUCAUGGAUCGUGGUGGUCCCGGUGGAAUGUUCAGAGGUGACCGUGGUGGAGACAG; result = 0.264
Sequence = CAAGUCCUGUGCUACACAUCGUAUGUACCGAAUCGGGUUUUUGGGUUUGGGAGGGAAAGUAUUAUGUUACGCCGUUCGGAUCUGCACUUC; result = -0.21
Sequence = CAAGUCCUGUGCUACACAUCGUAUGUACCGAAUCGGCCCCGGCCCCGGGCCCCGGAAAGUAUUAUGUUACGCCGUUCGGAUCUGCACUUC; result = -1.22

Block 3 — read-out: enzyme activity; action: inhibitor; concentration: 20 µM; notes: hit confirmation; measurement: inhibition
Target: Replicase polyprotein 1ab, main protease (rep, Severe acute respiratory syndrome coronavirus 2, UniProt P0DTD1)
Structure (SMILES) = N#Cc1c(-c2ccccc2)cc(-c2cc(Br)ccc2O)[nH]c1=O; result = 7.9%
Structure (SMILES) = CC[N+](CC)(CC)CCOc1cccc(OCC[N+](CC)(CC)CC)c1OCC[N+](CC)(CC)CC; result = 9.1%
Structure (SMILES) = COC(=O)C1=C(C)NC(C)=C(C(=O)OC)C1c1ccccc1[N+](=O)[O-]; result = 75.5% and 52.7%

Block 4 — technique: RNA Bind-n-Seq; form: RNA; matrix: in vitro; concentration: 365 nM; relative to: no-protein control; direction: higher = stronger binding; measurement: RBNS enrichment (R)
Target: RNA binding protein fox-1 homolog 2, RRM domain, GST-SBP tag (RBFOX2, Homo sapiens, UniProt O43251-10, residues 100-194)
Notes: natural RNA segment, single round, ends assumed
Shared flanks, not repeated: GGGAGUUCUACAGUCCGACGAUC … UGGAAUUCUCGGGUGCCAA
Construct (chain): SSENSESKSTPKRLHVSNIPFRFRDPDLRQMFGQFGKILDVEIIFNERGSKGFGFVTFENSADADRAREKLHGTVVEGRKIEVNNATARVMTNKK
Sequence = UCUGUGGCUGUGGUCUGUCCUGGGAACAGACGUGGUAAAAUGCGUUUCCUAUCUCUAAAAUAUCUACUUCUGUGAAGAAGACUGGCUUACUCAGGCCAGGGCCCUCCUGA; result = 0.279
Sequence = CUUUAGGAGAAGUUAAGAGGUAUAUUCUUAAGGUGUAUUCUAUUUUGAUCUAAUUCUGUUUCUGGGGAGCAUCUUGUACUGUCACUGUUUUUGUACUAAAUCUUCAAAUA; result = 0.872
Sequence = ACUGUAGAUGCUGGCCUGUCACUCUAUACCUCUCGCUUUAGUUAACCGGCAUGGAUGUGACCGGAAUGCCAUGGCCUAUCCAAGAGGAAAGGUGACCUCAGAUGCACCUG; result = 0.58
Sequence = CCUCCGGCCGUCCCUACCGACAGUGUUUGCCAAAGACAGGAGGCUGGAGGUGGACAGACCGCACGGUGGGCAGAAGAGGCUCGAGGGAGCCGCCCAGCGCUGGCCCUGCU; result = 0.39
Sequence = CACACUCUAGUUGUUUUCCAUGAAAGGUAUACAAAUGAAGAAUUUUCUAGCAAAACAUGUUUUUAACCAUCAGUGCUCAAUUGCAUUUUCUUCCUUUCGCAGCCAGUCAG; result = 0.456
Sequence = GACAGCUUAAUGGCUGAUGCUCGUCUUCACAGCCCGUGGCGGGCUUUAACGUAGCUCGAAUCUGGUACACGCAUAAAGUUUUACGGUCAAGUCCUUUUCUUUCUUCUUGA; result = 0.274
Sequence = UCCUUGGAACCAUCUCUGAAUUCUGAAUAGCUGACAACCCCCAAUGUUAUCCACUCUGUUGCUUUUGUCUGGAAAACUCUACAGUGUUUGUGGGAUGUCCCCAAAGGAAA; result = 0.385
Sequence = GCUGAGAGCUUUUAGUAAAAAUAGGCAUUUAUUUAAUAUUUCCCUGUUCCUUUGGCAAGCUUUAUCAGUAGCUUAACAACAGAAGAGAAGAGUUCAAACAGAUGAUGUUU; result = 0.654

Block 5 — cell line: HEK-293T; read-out: pseudovirus infection; organism: VSV pseudotyped with SARS-CoV-2 spike; concentration: 10 µM; time: 16 h; relative to: vehicle-treated; measurement: GFP-positive cells
Compound = Cc1c(O)cccc1C(=O)N[C@@H](CSc1ccccc1)[C@H](O)CN1C[C@H]2CCCC[C@H]2C[C@H]1C(=O)NC(C)(C)C; result = 73.9%
Compound = CO[C@H]1C(=O)[C@]2(C)[C@@H](OC)C[C@H]3OC[C@@]3(OC(C)=O)[C@H]2[C@H](OC(=O)c2ccccc2)[C@]2(O)C[C@H](OC(=O)[C@H](O)[C@@H](NC(=O)OC(C)(C)C)c3ccccc3)C(C)=C1C2(C)C; result = 79.4%
Compound = COc1cccc2c1C(=O)c1c(O)c3c(c(O)c1C2=O)C[C@@](O)(C(C)=O)C[C@@H]3O[C@H]1C[C@H](N)[C@H](O)[C@H](C)O1; result = 104%
Compound = CC(=O)Oc1ccc(C(c2ccc(OC(C)=O)cc2)c2ccccn2)cc1; result = 70.8%

Block 6 — technique: protein binding microarray; form: double-stranded DNA, one strand shown; matrix: in vitro; concentration: not given; relative to: not given; direction: higher = stronger binding; measurement: E-score
Target: Histone acetyltransferase KAT6A, winged helix 1, GST fusion (KAT6A, Homo sapiens, UniProt Q92794, residues 1-85)
Notes: 8-mer, flanks averaged, mean of 2 arrays, mostly near background
Target sequence (chain): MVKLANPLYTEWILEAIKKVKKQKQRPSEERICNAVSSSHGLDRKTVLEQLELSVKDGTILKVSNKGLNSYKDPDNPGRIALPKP
Sequence = TCCGCAGA; result = 0.138
Sequence = ATCGAGTG; result = -0.0893
Sequence = CATCAAAA; result = 0.0381
Sequence = AGCTCTAC; result = -0.104
Sequence = CGGGATAA; result = 0.183
Sequence = ACATCGGC; result = 0.242
Sequence = AAGATCGA; result = -0.146
Sequence = ATGTGCAC; result = -0.0284

Some of these lines once more (block 1):
SMILES = O=C1c2cccc3c2[C@H](CCC3)CN1[C@@H]1CN2CCC1CC2; result = 7.95%
SMILES = O=C(Oc1ccc(Br)cc1)N1CCN2CCC1CC2; result = 4.07%
SMILES = C=C[C@@](C)(/C=C/c1ccc(O)cc1)CCC=C(C)C; result = 2.7%
SMILES = CC(C)Oc1ccc2c(=O)c3cc(C(=O)O)ccc3oc2c1; result = 6.62%
